Assay results pooled from the literature.
Lines come from different studies, so protocols differ. Several values in a cell are separate wells, animals, samples, runs or records. ± gives the spread as reported.

SMILES	test	system	conditions	scale	quantity	value
C[C@@H](NC(=O)N1C(=O)[C@H](Cc2ccnc(N)c2)[C@H]1C(=O)O)C1CCCCC1	–	human	iv infusion, 0.6 mg/kg/h, 24 h	–	ACT AUEC	14100 h·s
N=C(N)NCCC[C@H](NC(=O)[C@H](CCCNC(=N)N)NC(=O)[C@H](CCCCN)NC(=O)[C@H](CCC(N)=O)NC(=O)[C@H](CCCCN)NC(=O)[C@H](Cc1ccc(O)cc1)NC(=O)[C@@H](N)CCCCN)C(=O)N[C@@H](CO)C(=O)N[C@@H](Cc1ccc(O)cc1)C(=O)N[C@@H](CCCCN)C(=O)O	air evaporative stimulus	dentin hypersensitivity patients	2.5 µg/tooth single, day 22	reference: baseline, direction not given	median Schiff sensitivity score change	-0.5
NCC(=O)Nc1cncc(-c2nn3c(=O)cc(N4CCNCC4)nc3s2)c1	ADP-induced platelet aggregation, light transmission aggregometry	human stable CAD patients on aspirin, platelets ex vivo	0.075 mg/kg, 5 min post dose, together with: 20 µM ADP	reference: placebo difference	inhibition of platelet aggregation	36.7%
C[C@H](Oc1ccc(Br)cc1-c1ccon1)C(=O)O	last response peak	human, tibialis anterior muscle	800 mg, 15 Hz, single ascending dose	–	difference from placebo	-22.9%
Cn1cc(Nc2nccc(-c3ccc4c(c3)CN(C3COC3)CC[C@H]4NC(=O)c3cn(C(C)(C)C)nn3)n2)cn1	item: leptin signaling in obesity	splenic B cells, mice	30 mg/kg, IgD-activated in vivo	reference: vehicle, direction not given	pathway activation z-score	1.67
COc1cc(Nc2ncc3c(n2)-c2ccc(Cl)cc2C(c2c(F)cccc2OC)=NC3)ccc1C(=O)O	–	mouse, NB-1643 neuroblastoma xenograft	20.8 mg/kg	direction not given	median response score	10
O=c1c(NCCc2cccc(Cl)c2)c(Nc2ccc(Cl)cc2)c1=O	active lever responses	cocaine self-administering rat	ip, 5.6 mg/kg, 10 min pretreatment	–	cue-induced cocaine-seeking reinstatement	decreased
CSCCNc1nc(SCCC(F)(F)F)nc2c1ncn2[C@@H]1O[C@H](COP(=O)(O)OP(=O)(O)C(Cl)(Cl)P(=O)(O)O)[C@@H](O)[C@H]1O	light transmittance aggregometry	human patients, platelet-rich plasma	dose not given, 1 h, together with: ADP 20 µM	reference: patients	patients with IPA above 80%	2.5%
CC(C)C[C@@H](C=O)NC(=O)[C@H](CC(C)C)NC(=O)[C@H](CC(C)C)NC(=O)OCc1ccccc1	item: Ub(G76V)-GFP	–	0.039 µM	–	degradation rate constant	0.0246 min⁻¹
C=CCn1c(=O)c2cnc(Nc3ccc(N4CCN(C)CC4)cc3)nc2n1-c1ccc2c(n1)[C@@](O)(CC)CC2	–	A-427 xenograft, NOD/SCID mouse	40 mg/kg once daily	–	tumour growth inhibition	75%
CCCCCCCCCCCCCCCC(=O)N[C@@H](CCC(=O)NCCCC[C@H](NC(=O)CCOCCOCCOCCOCCNC(=O)CNC(=O)CCN1C(=O)CC(SC[C@H](NC(=O)CNC(=O)[C@H](CO)NC(=O)CNC(=O)CNC(=O)CNC(=O)CNC(=O)[C@H](CO)NC(=O)CNC(=O)CNC(=O)CNC(=O)CNC(=O)[C@H](CO)NC(=O)CNC(=O)CNC(=O)CNC(=O)CNC(=O)[C@H](CCCNC(=N)N)NC(=O)CNC(=O)[C@H](CCCNC(=N)N)NC(=O)[C@@H](NC(=O)[C@H](CC(C)C)NC(=O)[C@H](Cc2c[nH]c3ccccc23)NC(=O)[C@H](C)NC(=O)[C@@H](NC(=O)[C@H](Cc2ccccc2)NC(=O)[C@H](CCC(=O)O)NC(=O)[C@H](CCCCN)NC(=O)[C@H](C)NC(=O)[C@H](C)NC(=O)[C@H](CCC(N)=O)NC(=O)CNC(=O)[C@H](CCC(=O)O)NC(=O)[C@H](CC(C)C)NC(=O)[C@H](Cc2ccc(O)cc2)NC(=O)[C@H](CO)NC(=O)[C@H](CO)NC(=O)[C@@H](NC(=O)[C@H](CC(=O)O)NC(=O)[C@H](CO)NC(=O)[C@@H](NC(=O)[C@H](Cc2ccccc2)NC(=O)[C@@H](NC(=O)CNC(=O)[C@H](CCC(=O)O)NC(=O)C(C)(C)NC(=O)[C@@H](N)Cc2cnc[nH]2)[C@@H](C)O)[C@@H](C)O)C(C)C)[C@@H](C)CC)C(C)C)C(=O)O)C1=O)C(=O)NCCOCCOCCOCCOCCC(=O)N[C@@H](CCCCNC(=O)CC[C@H](NC(=O)CCCCCCCCCCCCCCCCC(=O)O)C(=O)O)C(=O)OC)C(=O)O (some centres unmarked)	–	db/db mouse	subcutaneous, 100 nmol/kg single, 0 to 96 h	reference: baseline	blood glucose AUC(0-96)	5210 ± 847%
COc1cc(F)c([C@@H]2CNC(=O)[C@H]2NC(=O)Nc2ccccc2)c(F)c1	terminal haemodynamics	rat, permanent coronary occlusion MI	1 mg/kg, 1008 h, 6 weeks post-MI	–	LV dP/dtmin	-5450 ± 1050 mmHg/s
NC(=O)N1c2ccccc2C=Cc2ccccc21	beam walking test	mouse, CCI neuropathic pain model	20 mg/kg	–	beam crossing time	10.1 ± 0.81 s
NC(=O)c1cnc2[nH]ccc2c1N[C@@H]1[C@@H]2CC3C[C@H]1C[C@@](O)(C3)C2	flow cytometry	Japanese healthy men, blood	oral, 100 mg twice daily, 72 h after day 7 dose	reference: baseline	CD8+ memory T-cell change	-0.15%
CN[C@@H]1COc2c(S(=O)(=O)NC(=O)Nc3c4c(cc5c3CCC5)CCC4)cnn2C1	item: IL-18	human participants, whole blood ex vivo	900 mg single dose, 336 h, IL-18, circulating, adjusted for, together with: LPS/ATP	reference: baseline	inhibition	19.4%
Cc1noc(C)c1-c1cc(C(O)(c2ccccn2)c2ccccn2)c2nc(C3CC3)[nH]c2c1	item: CCR2 expression	human, peripheral blood	6 mg, day 15, 1604 study, together with: enzalutamide	–	maximum inhibition	42%

SMILES	test	system	conditions	scale	quantity	value
N#Cc1ccc(Oc2ccc3c(c2)COB3O)cc1	–	Balb/c mice, oxazolone atopic dermatitis	day 11, unit not given	reference: vehicle	ear thickness difference	-0.0804
CO[C@H]1CC[C@H](N2C(=O)CNc3ncc(-c4ccc(C(C)(C)O)nc4)nc32)CC1	flow cytometry	stimulated monocytes, human, blood	45 mg single dose, 5 h, mean	reference: baseline	pAKT change from baseline	-56.4%
CC(C)NCC(O)c1ccc(O)c(O)c1 (centres unmarked)	–	ventricular cardiomyocytes, C57BL/6 mouse	dose not given, 0.18 s	–	sarcomere length	1.5 µm
C[C@H]1C[C@H]2CSC(N)=N[C@@]2(c2nc(NC(=O)c3ccc(OC(F)F)cn3)cs2)CO1	item: Aβ1-40	healthy adults, plasma	12 mg single dose, 48 h post-dose	reference: placebo	percent change from baseline	-53.3%
Cc1cn(-c2ccc3n(c2=O)CCN([C@@H](C)[C@@H]2CC[C@H](c4cc(F)c(Cl)cc4C(F)(F)F)O2)C3=O)cn1	–	human, CSF	300 mg, at Tmax, single dose	reference: baseline	placebo-adjusted total Abeta change	7.11%
C[C@H]1O[C@@H](O[C@H]2CC[C@@]3(C)[C@@H](CC[C@]4(C)[C@@H]3C=C[C@]35OC[C@@]6(CCC(C)(C)C[C@H]63)[C@@H](O)C[C@]54C)[C@]2(C)CO)[C@H](O)[C@@H](O[C@@H]2O[C@H](CO)[C@@H](O)[C@H](O)[C@H]2O)[C@H]1O	–	pair-fed control mice, plasma	dose not given, high dose	reference: AST over ALT	AST/ALT ratio	1.57 and 1.56 and 2.19 and 1.8
O=C(O)CNC(=O)Cc1ccccc1	–	ventricular cardiomyocytes, C57BL/6 mouse	dose not given, 0.208 s	–	sarcomere length	1.62 µm
c1ccc(-c2n[nH]cc2-c2ccnc3ccccc23)nc1	kinase binding, competitor, MIB/MS competition, item: CEK1	Candida albicans cell lysate	10 µM	reference: DMSO	log2 fold change	0.766
COc1cc2c(cc1OC)C(=O)C(CC1CCN(Cc3ccccc3)CC1)C2 (centres unmarked)	Morris water maze	C57BL/6J mice, vascular dementia	10.0 and 1.0 mg/kg	–	escape latency	decreased
OC(CCN1CCCCC1)(c1ccccc1)C1CC2C=CC1C2 (centres unmarked)	resting-state EEG	healthy elderly humans	oral, 2 mg, eyes closed, LS mean	reference: baseline	change in EEG Beta3-power Fz-Cz	4.3%
CC(C)[C@H](C(=O)Nc1ccc(C(=O)NO)cc1)c1ccccc1	volumetric MRI	human, left posterior fossa tumour	dose not given, day 373	reference: baseline	tumour volume change	3.12%
CC(c1cc2ccccc2s1)N(O)C(N)=O (centres unmarked)	item: RvE3	human whole blood	3 µM, together with: Escherichia coli	–	amount	20 ± 6 pg/mL blood
Cc1n[nH]c2ccc(-c3cc(OC[C@@H](N)Cc4ccccc4)cnc3-c3ccoc3)cc12	kinase binding, competitor, MIB/MS competition, item: NIK1	Candida albicans cell lysate	1 µM	reference: DMSO	log2 fold change	0.254
Cc1cnc(Nc2ccc(OCCN3CCCC3)cc2)nc1Nc1cccc(S(=O)(=O)NC(C)(C)C)c1	–	BALB/c mice rhEPO-induced polycythemia	120 mg/kg	–	spleen weight	0.121 g and 0.092 g and 0.108 g and 0.134 g and 0.1 g and 0.117 g
CCCCCCCCCCCCCCCC(=O)N[C@@H](CCC(=O)NCCCC[C@H](NC(=O)[C@H](C)NC(=O)[C@H](C)NC(=O)[C@H](CCC(N)=O)NC(=O)CNC(=O)[C@H](CCC(=O)O)NC(=O)[C@H](CC(C)C)NC(=O)[C@H](Cc1ccc(O)cc1)NC(=O)[C@H](CO)NC(=O)[C@H](CO)NC(=O)[C@@H](NC(=O)[C@H](CC(=O)O)NC(=O)[C@H](CO)NC(=O)[C@@H](NC(=O)[C@H](Cc1ccccc1)NC(=O)[C@@H](NC(=O)CNC(=O)[C@H](CCC(=O)O)NC(=O)[C@H](C)NC(=O)[C@@H](N)Cc1c[nH]cn1)[C@@H](C)O)[C@@H](C)O)C(C)C)C(=O)N[C@@H](CCC(=O)O)C(=O)N[C@@H](Cc1ccccc1)C(=O)N[C@H](C(=O)N[C@@H](C)C(=O)N[C@@H](Cc1c[nH]c2ccccc12)C(=O)N[C@@H](CC(C)C)C(=O)N[C@H](C(=O)N[C@@H](CCCNC(=N)N)C(=O)NCC(=O)N[C@@H](CCCNC(=N)N)C(=O)NCC(=O)O)C(C)C)[C@@H](C)CC)C(=O)O	spout contacts	Sprague-Dawley rat, saline self-administering	subcutaneous, 0.3 mg/kg, hour 1, dosed six hours before test, extinction test 1	–	cue-induced heroin seeking	no effect
N#Cc1ccc2c(-c3ccncc3)c(-c3ccc(F)cc3)nn2c1	kinase binding, competitor, MIB/MS competition, item: CTK1	Candida albicans cell lysate	1 µM	reference: DMSO	log2 fold change	-0.64
